Measurements of several laboratories.
Every numbered part comes from another study and shows a few of its results, in no order. “And” joins repeats or separate records; there may be more than shown.
Chain of UniProt Q96KB5 (whole entry, looked up): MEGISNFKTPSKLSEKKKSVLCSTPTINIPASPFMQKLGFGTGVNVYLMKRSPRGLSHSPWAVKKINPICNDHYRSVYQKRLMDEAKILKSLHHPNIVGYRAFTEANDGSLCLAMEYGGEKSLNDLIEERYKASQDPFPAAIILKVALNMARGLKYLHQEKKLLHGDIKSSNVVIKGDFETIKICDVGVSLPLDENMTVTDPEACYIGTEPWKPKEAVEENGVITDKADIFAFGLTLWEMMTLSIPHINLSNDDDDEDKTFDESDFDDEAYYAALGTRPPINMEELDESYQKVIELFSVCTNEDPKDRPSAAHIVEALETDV
Chain of UniProt P51617 (whole entry, looked up): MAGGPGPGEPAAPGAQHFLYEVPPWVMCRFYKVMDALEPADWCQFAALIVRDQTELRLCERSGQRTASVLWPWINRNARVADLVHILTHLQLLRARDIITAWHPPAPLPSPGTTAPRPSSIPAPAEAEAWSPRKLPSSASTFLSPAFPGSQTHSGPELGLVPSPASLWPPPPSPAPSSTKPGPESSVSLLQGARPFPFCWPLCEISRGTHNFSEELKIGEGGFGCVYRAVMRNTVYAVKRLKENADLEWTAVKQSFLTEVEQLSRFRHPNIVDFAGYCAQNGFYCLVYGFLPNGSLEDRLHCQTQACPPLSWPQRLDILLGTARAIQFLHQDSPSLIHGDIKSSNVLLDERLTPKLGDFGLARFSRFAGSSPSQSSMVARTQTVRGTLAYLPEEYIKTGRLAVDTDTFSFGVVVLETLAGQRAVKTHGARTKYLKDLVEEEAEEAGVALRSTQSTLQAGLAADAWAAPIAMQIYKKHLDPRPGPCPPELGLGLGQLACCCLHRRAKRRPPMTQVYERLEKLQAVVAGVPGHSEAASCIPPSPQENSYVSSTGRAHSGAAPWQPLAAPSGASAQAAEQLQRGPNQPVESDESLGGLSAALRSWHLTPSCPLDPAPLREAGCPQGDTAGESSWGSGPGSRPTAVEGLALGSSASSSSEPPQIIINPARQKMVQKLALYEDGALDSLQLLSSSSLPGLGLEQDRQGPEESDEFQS
Chain of UniProt P29322 (whole entry, looked up): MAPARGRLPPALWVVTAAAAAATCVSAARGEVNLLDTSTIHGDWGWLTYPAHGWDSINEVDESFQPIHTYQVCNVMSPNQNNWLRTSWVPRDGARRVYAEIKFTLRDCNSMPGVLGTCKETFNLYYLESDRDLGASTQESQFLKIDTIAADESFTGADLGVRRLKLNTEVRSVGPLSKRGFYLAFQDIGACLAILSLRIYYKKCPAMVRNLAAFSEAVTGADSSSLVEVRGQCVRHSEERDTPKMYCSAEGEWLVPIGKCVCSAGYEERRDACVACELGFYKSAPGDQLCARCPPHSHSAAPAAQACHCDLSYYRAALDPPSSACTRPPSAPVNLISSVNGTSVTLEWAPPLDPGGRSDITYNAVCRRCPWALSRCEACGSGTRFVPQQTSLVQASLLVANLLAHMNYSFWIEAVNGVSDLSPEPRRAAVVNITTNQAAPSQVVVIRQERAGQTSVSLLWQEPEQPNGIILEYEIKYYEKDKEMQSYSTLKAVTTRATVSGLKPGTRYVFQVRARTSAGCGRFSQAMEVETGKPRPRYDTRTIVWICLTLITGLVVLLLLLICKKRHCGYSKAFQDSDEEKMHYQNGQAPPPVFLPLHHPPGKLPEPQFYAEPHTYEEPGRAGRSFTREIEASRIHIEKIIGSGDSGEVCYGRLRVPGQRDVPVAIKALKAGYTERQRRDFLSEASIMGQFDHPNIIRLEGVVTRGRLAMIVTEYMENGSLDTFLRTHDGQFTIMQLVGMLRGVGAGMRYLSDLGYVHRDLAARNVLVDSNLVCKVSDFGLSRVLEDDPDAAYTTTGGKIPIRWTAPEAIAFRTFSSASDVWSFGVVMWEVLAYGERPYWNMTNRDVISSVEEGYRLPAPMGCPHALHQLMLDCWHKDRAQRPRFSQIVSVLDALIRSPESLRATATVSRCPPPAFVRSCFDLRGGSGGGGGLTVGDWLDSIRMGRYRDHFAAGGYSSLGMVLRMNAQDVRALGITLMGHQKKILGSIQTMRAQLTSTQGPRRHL
Chain of UniProt Q15303 (whole entry, looked up): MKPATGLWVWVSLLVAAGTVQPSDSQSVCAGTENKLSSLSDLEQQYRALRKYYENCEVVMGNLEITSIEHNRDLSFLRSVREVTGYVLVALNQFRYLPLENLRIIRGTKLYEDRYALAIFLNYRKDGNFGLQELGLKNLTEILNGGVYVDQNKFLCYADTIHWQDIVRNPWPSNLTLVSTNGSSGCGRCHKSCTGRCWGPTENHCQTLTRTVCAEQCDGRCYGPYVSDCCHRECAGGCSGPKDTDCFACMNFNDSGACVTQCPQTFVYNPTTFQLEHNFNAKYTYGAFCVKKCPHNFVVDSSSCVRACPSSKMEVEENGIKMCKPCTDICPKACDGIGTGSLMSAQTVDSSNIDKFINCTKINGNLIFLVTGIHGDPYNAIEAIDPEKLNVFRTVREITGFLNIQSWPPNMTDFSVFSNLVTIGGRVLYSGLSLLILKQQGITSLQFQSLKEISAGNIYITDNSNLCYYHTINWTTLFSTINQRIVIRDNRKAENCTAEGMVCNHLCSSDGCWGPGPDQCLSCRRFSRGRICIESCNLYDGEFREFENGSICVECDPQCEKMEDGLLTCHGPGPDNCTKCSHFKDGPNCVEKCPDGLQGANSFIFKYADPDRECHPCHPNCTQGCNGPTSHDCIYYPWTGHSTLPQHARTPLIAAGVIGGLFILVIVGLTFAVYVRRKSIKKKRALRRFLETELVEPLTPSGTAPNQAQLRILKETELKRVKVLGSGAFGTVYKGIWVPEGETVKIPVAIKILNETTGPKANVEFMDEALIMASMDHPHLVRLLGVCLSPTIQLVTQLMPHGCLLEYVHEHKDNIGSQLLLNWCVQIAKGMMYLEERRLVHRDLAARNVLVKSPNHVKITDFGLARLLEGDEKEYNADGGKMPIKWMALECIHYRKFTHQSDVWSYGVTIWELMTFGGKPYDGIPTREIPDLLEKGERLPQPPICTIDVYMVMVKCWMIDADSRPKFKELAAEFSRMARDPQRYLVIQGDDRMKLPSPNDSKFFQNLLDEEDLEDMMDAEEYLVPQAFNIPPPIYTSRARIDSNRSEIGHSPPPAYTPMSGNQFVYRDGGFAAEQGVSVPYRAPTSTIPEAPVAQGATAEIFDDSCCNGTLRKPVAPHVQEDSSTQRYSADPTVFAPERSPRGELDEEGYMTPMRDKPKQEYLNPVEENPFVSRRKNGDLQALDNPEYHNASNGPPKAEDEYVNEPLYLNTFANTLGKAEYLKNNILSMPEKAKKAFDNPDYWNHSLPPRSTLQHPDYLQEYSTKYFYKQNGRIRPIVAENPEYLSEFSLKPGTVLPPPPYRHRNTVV
Chain of UniProt Q13555 (whole entry, looked up): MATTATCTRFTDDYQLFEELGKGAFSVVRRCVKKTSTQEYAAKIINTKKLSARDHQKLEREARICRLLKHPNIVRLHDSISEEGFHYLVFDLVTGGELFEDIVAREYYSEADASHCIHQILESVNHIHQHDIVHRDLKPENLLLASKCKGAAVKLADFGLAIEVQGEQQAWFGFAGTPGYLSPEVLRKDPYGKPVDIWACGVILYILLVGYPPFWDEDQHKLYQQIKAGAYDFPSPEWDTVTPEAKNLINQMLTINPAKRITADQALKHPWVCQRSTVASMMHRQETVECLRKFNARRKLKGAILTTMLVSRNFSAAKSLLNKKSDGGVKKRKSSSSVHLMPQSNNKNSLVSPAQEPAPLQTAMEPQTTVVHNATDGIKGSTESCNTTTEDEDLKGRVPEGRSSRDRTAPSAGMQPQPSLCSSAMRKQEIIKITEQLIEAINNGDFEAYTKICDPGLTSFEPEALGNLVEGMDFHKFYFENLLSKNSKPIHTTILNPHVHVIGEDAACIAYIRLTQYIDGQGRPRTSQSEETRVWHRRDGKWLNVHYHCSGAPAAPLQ
Chain of UniProt Q8TDX7 (whole entry, looked up): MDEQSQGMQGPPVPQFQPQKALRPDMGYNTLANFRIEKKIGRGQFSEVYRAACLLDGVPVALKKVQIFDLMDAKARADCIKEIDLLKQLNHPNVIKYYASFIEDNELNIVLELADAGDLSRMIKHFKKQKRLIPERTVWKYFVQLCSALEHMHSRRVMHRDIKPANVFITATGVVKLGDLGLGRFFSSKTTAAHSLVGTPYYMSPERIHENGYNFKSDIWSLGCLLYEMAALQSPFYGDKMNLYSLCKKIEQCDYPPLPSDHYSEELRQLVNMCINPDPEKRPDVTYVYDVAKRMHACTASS

Study 1
Cell line: A-375
Concentration: 100 µM
Time: 18 h
Structure (SMILES) | viability [%]
CCC1=C[C@@H]2CN3CCc4c([nH]c5ccccc45)[C@@](C(=O)OC)(C2)[C@@H]13 | 80
NCC(O)c1ccc(O)cc1 (centres unmarked) | 98
Nc1nc(N)nc(NC2CC2)n1 | 69
OC(O)C(Cl)(Cl)Cl | 104

Study 2
Read-out: dsDNA unwinding
Method: PicoGreen fluorescence
Sample: annealed dsDNA substrate
Concentration: 20 µM
SMILES | effect
CC(C)N(CCC(=O)c1ccc2ccccc2c1)Cc1ccccc1 | 1.74%
O=c1[nH]nc(Sc2ncc([N+](=O)[O-])s2)n1-c1ccc2c(c1)OCCO2 | 8.75%
CC(C)N[C@@H]1CCn2c(=O)[nH]c3cccc(c32)[C@H]1O | 14.4%
CCC(C)SSc1ncc[nH]1 (centres unmarked) | -1.1%
Cc1nc(C#Cc2ccnc(Cl)c2)c(C)n1-c1ccc(OC(F)(F)F)cc1 | 4.02%
CC(C)(C)c1ccc(S(=O)(=O)/C=C/C#N)cc1 | 6.42%
CCN1C(=O)CNc2ncc(-c3ccc(-c4nc[nH]n4)nc3C)nc21 | 3.99%
Oc1c(I)cc(I)c(O)c1I | 13.1%
CN(C)C(=S)SSC(=S)N(C)C | 5.32%
O=C1C2CC=CCC2C(=O)N1SC(Cl)(Cl)Cl (centres unmarked) | 12.7%
O=C(O)c1ccc(N2C(=O)/C(=C\c3ccc(-c4ccc([N+](=O)[O-])cc4)o3)C=C2c2ccccc2)cc1 | 11.5%
CC(C)Nc1cccnc1N1CCN(C(=O)c2cc3cc(NS(C)(=O)=O)ccc3[nH]2)CC1 | 15.8%
CC(=O)[O][Pt]([NH2])([Cl])([Cl])([NH]C1CCCCC1)[O]C(C)=O | 5.86%
CCOC(=O)C1=C(N)Oc2ccc(Br)cc2[C@H]1[C@H](C#N)C(=O)OCC | 11.1% and 3.09%
O=C1C=CC(=O)C2=C1C1c3ccccc3C2c2ccccc21 | 6.47%
O=Nc1ccc(O)c2ncccc12 | 0.14%
CC(=O)OC[C@H]1O[C@@H]([S-])[C@H](OC(C)=O)[C@@H](OC(C)=O)[C@@H]1OC(C)=O.CCP(CC)CC.[Au+] | 1.69%
Oc1cc2c(cc1O)[C@@H]1c3ccc(O)c(O)c3OC[C@]1(O)C2 | 1.87%
O=C(O)c1ccc(SSc2ccc(C(=O)O)cn2)nc1 | 3.43%
Cc1ccc(-n2sc(=O)n(Cc3ccc(F)cc3)c2=O)cc1 | -4.47%
Oc1ccc2c(c1)CC[C@H](c1ccccc1)[C@@H]2c1ccc(OCCN2CCCC2)cc1 | 15.5%
CCC[C@H](NC(=O)[C@@H]1[C@H]2CCC[C@H]2CN1C(=O)[C@@H](NC(=O)[C@@H](NC(=O)c1cnccn1)C1CCCCC1)C(C)(C)C)C(=O)C(=O)NC1CC1 | 2.36%
COC(=O)C1=C(C)NC(C)=C(C(=O)OCC(C)C)C1c1ccccc1[N+](=O)[O-] (centres unmarked) | -5.76%
CC1OC2(CS1)CN1CCC2CC1 (centres unmarked) | 8.23%
COc1cccc(Nc2c(C(N)=O)cnc3c(C)cc(S(=O)(=O)c4cccc(C(=O)N(C)C)c4)cc23)c1 | -2.43%

Study 3
Organism: Sarcocystis neurona
Read-out: parasite growth
Concentration: 10 µM
Time: 96 h
Compound | inhibition
C[C@]12C/C(=C/O)C(=O)C[C@@H]1CC[C@@H]1[C@@H]2CC[C@@]2(C)[C@H]1CC[C@]2(C)O | -5.1%
CNCC(O)c1ccc(O)cc1 (centres unmarked) | -15.6%
COc1ccc(C(CN(C)C)C2(O)CCCCC2)cc1 (centres unmarked) | -6.9%
Cc1nnc2n1-c1ccc(Cl)cc1C(c1ccccc1)=NC2 | -2.8%
C=C1C[C@@H]2[C@H](CC[C@]3(C)C(=O)CC[C@@H]23)[C@@]2(C)C=CC(=O)C=C12 | -6.1%
NC(=O)C[S+]([O-])C(c1ccccc1)c1ccccc1 (centres unmarked) | -12.9%
CN1C(=O)CN=C(c2ccccc2)c2cc([N+](=O)[O-])ccc21 | -6.7%
Cc1ncc2n1-c1ccc(Cl)cc1C(c1ccccc1F)=NC2 | -13.5%
CC(NC(C)(C)C)C(=O)c1cccc(Cl)c1 (centres unmarked) | -12%
O=C1CN=C(c2ccccc2)c2cc([N+](=O)[O-])ccc2N1 | -13.4%

Study 4
Target: Calcium/calmodulin-dependent protein kinase type II subunit alpha (CAMK2A, Homo sapiens, UniProt Q9UQM7)
Chain of UniProt Q9UQM7 (whole entry, looked up): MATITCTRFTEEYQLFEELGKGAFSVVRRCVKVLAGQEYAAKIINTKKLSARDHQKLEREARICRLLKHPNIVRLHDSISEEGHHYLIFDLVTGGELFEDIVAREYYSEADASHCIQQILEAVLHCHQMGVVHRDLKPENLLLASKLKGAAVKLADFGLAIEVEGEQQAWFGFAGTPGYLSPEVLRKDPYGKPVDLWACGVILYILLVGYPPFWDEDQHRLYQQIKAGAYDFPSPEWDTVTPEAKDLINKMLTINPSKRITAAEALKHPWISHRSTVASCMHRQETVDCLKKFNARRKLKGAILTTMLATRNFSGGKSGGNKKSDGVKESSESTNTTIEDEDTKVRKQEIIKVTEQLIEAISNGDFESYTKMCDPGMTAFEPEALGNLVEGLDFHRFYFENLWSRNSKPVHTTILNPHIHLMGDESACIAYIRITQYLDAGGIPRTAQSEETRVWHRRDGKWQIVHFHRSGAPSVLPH
Read-out: enzyme activity
Mode: inhibitor
Concentration: 10 µM
SMILES | inhibition
C=C1CC[C@H]2[C@@H](/C=C(\C)C(=O)[C@@]3(OC(C)=O)C[C@H](C)[C@H](OC(=O)c4ccccc4)[C@@H]3[C@H]1OC(C)=O)C2(C)C | -7%
CC(=O)O[C@H]1C(=O)[C@@]2(C)[C@H]([C@H](OC(=O)c3ccccc3)[C@]3(O)C[C@H](O)C(C)=C1C3(C)C)[C@]1(OC(C)=O)CO[C@@H]1C[C@@H]2O | -13%
CN(C)Cc1c[nH]c2ccccc12 | -34%
COC[C@]12CN(C)[C@@H]3[C@@H]4[C@H](OC)[C@H]1[C@@]3([C@@H](OC)C[C@H]2O)[C@@H]1C[C@@]2(O)[C@H](OC(=O)c3ccccc3)[C@@H]1[C@]4(OC(C)=O)[C@@H](O)[C@@H]2OC | -55%
C[C@H]1CC[C@]2(NC1)O[C@H]1C[C@H]3[C@@H]4CC[C@H]5C[C@@H](O[C@@H]6O[C@H](CO)[C@H](O[C@@H]7O[C@H](CO)[C@@H](O)[C@H](O[C@@H]8OC[C@@H](O)[C@H](O)[C@H]8O)[C@H]7O[C@@H]7O[C@H](CO)[C@@H](O)[C@H](O)[C@H]7O)[C@H](O)[C@H]6O)CC[C@]5(C)[C@H]4CC[C@]3(C)[C@H]1[C@@H]2C | 10%
C[C@@H]1CC[C@H]2[C@@H](C)C(=O)O[C@@H]3O[C@@]4(C)CC[C@@H]1[C@]32OO4 | 0%
CC(C)(O)C(Cl)(Cl)Cl | -8%

Study 5
SMILES: COc1ccc2c(c[n+](C)c3c4cc5c(cc4ccc23)OCO5)c1OC
Read-out: enzyme activity
Mode: inhibitor
Concentration: 0.5 µM
Relative to: control
target | remaining activity
PBK (Homo sapiens, UniProt Q96KB5) | 102%
CAMK2G (Homo sapiens, UniProt Q13555) | 95.9%
MAPK8 (Homo sapiens, UniProt P45983) | 89.8%
ERBB4 (Homo sapiens, UniProt Q15303) | 99.9%
CSNK1G1 (Homo sapiens, UniProt Q9HCP0) | 106%
NEK7 (Homo sapiens, UniProt Q8TDX7) | 98.9%
MKNK1 (Homo sapiens, UniProt Q9BUB5) | 102%
MYLK2 (Homo sapiens, UniProt Q9H1R3) | 95.3%
EPHA8 (Homo sapiens, UniProt P29322) | 100%
IRAK1 (Homo sapiens, UniProt P51617) | 103%
